Published values from different studies.
Every numbered part comes from another study and shows a few of its results, in no order. “And” joins repeats or separate records; there may be more than shown. Positions count from the first letter of the parent shown.

Set 1
Target: Serine/threonine-protein kinase pim-3 (PIM3, Homo sapiens, UniProt Q86V86)
Read-out: enzyme activity
Mode: inhibitor
Concentration: 0.5 µM
Baseline: control
SMILES | remaining activity
CCN(CC)CCCCN1c2ccccc2Oc2ccc(Cl)cc21 | 37.8%
Nc1nc(Nc2ccc(S(N)(=O)=O)cc2)nn1C(=S)Nc1c(F)cccc1F | 89.1%
COc1cc2c(Nc3ccc(Br)cc3F)ncnc2cc1OCC1CCN(C)CC1 | 96.1%
N#C/C(=C(/N)SC1C=CC=CC1)c1cccc(C(O)c2ccncc2)c1 (stereo not drawn) | 112%
N#CC(c1ccnc(NCCc2cccnc2)n1)c1nc2ccccc2s1 (stereo not drawn) | 3.74%
CC(C)n1cnc2c(Nc3cccc(Cl)c3)nc(NCCO)nc21 | 90.4%
O=C1NC(=O)/C(=C/c2ccc3c(c2)OC(F)(F)O3)S1 | 39.8%
NC(=O)c1ccc(-c2nc(-c3ccc4c(c3)OCCO4)c(-c3ccccn3)[nH]2)cc1 | 96.9%
O=C(c1ccccc1)c1ccc(N2CCOCC2)cc1O | 98.9%

Set 2
Target: CCNA1, cyclin fold, Cln2 fusion (human)
Technique: yeast growth competition, sequencing
Medium: yeast
Setting: weak parent motif
Baseline: not given
Direction: higher = stronger binding
Starting sequence: ITGB3BP docking peptide (human); MPVKRSLKLDGLL
Change | normalised enrichment score
MPVKRSLKLDGAL [L12A] | 0.3
MPVKKSLKLDGLL [R5K] | -0.046
MPVKASLKLDGLL [R5A] | 0.023
MPVKKSLKFDGLL [R5K L9F] | -0.048
MPVKASAKLDGLL [R5A L7A] | 0.175
MPVKRSLKLDALL [G11A] | 0.234
MPVKRSLKLDGLA [L13A] | 0.535
MAVKRSLKLDGLL [P2A] | 0.26

Mixed results
Substance | target or system | assay | test system | conditions | scale | quantity | value
EBNA1BP2 (Homo sapiens, UniProt Q99848) | DDX18 (Homo sapiens, UniProt Q9NVP1) | cross-linking MS | cell fractions | together with: DSSO | – | cross-linked residues | K45 to K656
O=C(Nc1cccnn1)N1CCC(=Cc2cccc(Oc3ccc(C(F)(F)F)cn3)c2)CC1 | normal organoid sample D | CellTiter-Glo | human | 1 µM, 4 days | baseline: DMSO | viability | 83% and 95.4%
NUP98 (Homo sapiens, UniProt P52948) | NUP160 (Homo sapiens, UniProt Q12769) | cross-linking MS | – | hits only | – | interaction screen | cross-linked
NONO (Homo sapiens, UniProt Q15233) | PSPC1 (Homo sapiens, UniProt Q8WXF1) | cross-linking MS | – | hits only | – | interaction screen | cross-linked
